Experimental data gathered from unrelated publications.
Lines come from different studies, so protocols differ. Several values in a cell are separate wells, animals, samples, runs or records. Numbers after ± are the reported error.
P4HB: Protein disulfide-isomerase (P4HB, Homo sapiens, UniProt P07237)
Chain of UniProt P07237 (whole entry, looked up): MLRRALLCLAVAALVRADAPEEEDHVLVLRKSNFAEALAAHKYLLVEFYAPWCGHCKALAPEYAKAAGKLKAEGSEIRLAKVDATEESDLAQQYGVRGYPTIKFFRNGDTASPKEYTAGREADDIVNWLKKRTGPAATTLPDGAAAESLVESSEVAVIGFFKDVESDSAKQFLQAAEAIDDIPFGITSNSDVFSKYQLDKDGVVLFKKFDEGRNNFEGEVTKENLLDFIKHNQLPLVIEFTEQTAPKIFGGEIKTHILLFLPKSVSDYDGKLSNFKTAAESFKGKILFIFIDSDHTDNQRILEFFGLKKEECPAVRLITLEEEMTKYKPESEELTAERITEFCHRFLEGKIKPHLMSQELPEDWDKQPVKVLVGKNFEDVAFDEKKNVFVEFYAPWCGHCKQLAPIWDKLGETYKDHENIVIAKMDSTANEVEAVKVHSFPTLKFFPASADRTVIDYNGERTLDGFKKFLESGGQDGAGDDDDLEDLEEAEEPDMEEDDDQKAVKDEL
gag-pol integrase: Gag-Pol polyprotein, integrase (gag-pol, Human immunodeficiency virus type 1 group M subtype B, UniProt P04585)
PTGS1: Prostaglandin G/H synthase 1 (PTGS1, Ovis aries, UniProt P05979)
Chain of UniProt P05979 (whole entry, looked up): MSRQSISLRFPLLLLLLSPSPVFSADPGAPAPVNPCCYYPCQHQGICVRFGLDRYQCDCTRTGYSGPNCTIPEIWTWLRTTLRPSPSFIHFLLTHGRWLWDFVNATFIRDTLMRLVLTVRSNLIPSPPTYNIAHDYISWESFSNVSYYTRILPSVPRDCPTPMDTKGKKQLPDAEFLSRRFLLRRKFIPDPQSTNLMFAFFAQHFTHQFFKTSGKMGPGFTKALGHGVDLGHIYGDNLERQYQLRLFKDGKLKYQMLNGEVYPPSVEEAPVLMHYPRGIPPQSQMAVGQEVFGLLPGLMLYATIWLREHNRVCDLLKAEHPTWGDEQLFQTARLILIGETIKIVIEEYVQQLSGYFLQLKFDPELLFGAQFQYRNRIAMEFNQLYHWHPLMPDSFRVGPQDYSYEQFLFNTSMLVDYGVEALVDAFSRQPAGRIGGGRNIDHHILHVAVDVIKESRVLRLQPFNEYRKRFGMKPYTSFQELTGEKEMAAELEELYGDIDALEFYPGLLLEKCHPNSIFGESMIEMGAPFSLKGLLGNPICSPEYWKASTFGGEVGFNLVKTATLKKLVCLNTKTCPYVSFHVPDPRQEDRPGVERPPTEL
TMPRSS2: Transmembrane protease serine 2 (TMPRSS2, Homo sapiens, UniProt O15393)
Chain of UniProt O15393 (whole entry, looked up): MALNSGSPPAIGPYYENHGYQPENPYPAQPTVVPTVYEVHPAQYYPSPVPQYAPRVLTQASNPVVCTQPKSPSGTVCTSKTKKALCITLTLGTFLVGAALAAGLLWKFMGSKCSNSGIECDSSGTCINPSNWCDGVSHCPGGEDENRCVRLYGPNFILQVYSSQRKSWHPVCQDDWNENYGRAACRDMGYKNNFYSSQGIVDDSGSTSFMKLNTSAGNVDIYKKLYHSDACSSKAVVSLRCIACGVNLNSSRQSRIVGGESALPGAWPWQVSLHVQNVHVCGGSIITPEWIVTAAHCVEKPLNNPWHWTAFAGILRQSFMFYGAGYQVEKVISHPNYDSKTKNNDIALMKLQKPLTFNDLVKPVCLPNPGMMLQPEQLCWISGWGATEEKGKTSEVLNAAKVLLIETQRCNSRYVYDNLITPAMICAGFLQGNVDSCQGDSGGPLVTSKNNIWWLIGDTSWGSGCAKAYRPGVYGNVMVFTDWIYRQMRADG
CPL: CPL (Toxoplasma gondii, UniProt Q6DMN0)
AR: Androgen receptor (AR, Homo sapiens, UniProt P10275)
Chain of UniProt P10275 (whole entry, looked up): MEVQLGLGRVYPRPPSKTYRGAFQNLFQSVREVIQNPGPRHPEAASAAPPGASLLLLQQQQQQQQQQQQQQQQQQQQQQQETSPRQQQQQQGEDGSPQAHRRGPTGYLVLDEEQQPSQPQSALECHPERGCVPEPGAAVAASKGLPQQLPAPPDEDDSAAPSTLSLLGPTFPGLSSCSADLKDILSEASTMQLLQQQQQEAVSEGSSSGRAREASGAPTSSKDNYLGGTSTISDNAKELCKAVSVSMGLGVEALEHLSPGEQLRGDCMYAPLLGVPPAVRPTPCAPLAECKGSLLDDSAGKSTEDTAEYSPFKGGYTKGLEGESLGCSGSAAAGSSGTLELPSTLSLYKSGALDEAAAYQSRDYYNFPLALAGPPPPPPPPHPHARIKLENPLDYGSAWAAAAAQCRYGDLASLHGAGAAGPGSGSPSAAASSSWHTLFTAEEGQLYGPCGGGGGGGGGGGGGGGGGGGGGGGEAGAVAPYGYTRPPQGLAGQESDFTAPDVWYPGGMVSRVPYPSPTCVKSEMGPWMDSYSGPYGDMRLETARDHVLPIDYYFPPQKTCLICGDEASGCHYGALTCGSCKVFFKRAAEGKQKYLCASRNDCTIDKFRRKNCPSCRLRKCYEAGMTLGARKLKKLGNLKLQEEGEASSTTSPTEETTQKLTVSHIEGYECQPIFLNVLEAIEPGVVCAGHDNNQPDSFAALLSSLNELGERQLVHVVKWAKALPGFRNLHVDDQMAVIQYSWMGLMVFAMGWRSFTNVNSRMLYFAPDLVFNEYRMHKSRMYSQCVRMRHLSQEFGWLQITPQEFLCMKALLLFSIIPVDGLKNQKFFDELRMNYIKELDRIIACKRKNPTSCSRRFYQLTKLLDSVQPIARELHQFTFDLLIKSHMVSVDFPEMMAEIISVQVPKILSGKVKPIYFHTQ
Chain of UniProt Q13976 (whole entry, looked up): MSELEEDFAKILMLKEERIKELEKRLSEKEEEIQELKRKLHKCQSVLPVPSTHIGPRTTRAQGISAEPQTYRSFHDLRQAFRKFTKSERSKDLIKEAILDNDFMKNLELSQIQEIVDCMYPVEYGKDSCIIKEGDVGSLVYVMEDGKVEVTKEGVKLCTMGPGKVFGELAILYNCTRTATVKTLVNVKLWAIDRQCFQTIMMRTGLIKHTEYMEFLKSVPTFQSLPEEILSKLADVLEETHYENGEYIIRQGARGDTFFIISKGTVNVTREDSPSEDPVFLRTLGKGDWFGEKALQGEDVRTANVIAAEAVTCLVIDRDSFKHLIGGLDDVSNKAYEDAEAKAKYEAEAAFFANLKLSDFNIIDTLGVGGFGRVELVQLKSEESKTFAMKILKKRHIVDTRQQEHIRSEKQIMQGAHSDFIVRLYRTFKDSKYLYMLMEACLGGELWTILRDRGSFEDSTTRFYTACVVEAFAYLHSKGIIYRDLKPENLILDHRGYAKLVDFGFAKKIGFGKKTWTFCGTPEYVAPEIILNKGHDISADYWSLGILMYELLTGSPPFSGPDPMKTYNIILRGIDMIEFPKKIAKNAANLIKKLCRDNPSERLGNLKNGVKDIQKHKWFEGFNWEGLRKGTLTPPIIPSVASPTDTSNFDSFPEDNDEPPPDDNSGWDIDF
Chain of UniProt P21447 (whole entry, unmodified, looked up): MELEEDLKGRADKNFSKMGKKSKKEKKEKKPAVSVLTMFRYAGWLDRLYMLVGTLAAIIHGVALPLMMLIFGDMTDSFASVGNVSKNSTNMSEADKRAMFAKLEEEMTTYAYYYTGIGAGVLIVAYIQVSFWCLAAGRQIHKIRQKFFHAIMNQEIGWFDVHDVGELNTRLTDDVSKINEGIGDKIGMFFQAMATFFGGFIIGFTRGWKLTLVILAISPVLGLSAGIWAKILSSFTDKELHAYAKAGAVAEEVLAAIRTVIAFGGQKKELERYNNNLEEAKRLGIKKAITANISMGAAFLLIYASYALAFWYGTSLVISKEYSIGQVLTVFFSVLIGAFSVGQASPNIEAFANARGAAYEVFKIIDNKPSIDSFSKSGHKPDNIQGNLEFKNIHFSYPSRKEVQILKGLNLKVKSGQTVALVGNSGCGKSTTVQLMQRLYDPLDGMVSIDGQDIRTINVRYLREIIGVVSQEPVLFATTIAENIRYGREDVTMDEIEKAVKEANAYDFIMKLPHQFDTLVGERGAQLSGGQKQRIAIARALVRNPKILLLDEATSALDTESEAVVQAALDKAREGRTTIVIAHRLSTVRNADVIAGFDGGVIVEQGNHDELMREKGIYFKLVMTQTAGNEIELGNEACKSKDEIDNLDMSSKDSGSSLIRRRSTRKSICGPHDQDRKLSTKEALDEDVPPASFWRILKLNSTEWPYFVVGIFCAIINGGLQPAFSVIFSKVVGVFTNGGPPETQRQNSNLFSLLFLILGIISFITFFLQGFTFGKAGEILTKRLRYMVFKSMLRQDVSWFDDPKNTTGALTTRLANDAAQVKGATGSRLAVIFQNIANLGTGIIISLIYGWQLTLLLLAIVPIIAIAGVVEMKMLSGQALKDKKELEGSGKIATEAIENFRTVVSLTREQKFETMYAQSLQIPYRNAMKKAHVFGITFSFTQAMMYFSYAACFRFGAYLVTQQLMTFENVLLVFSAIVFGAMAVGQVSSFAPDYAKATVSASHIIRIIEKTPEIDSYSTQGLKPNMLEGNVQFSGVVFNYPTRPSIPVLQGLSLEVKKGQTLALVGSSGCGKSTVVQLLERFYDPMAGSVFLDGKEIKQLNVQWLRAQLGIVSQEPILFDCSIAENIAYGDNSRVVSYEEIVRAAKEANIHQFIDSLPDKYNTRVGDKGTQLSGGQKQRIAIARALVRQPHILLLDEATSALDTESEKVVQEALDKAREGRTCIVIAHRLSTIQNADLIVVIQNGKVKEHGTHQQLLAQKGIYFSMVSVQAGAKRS
Chain of UniProt P62615 (whole entry, looked up): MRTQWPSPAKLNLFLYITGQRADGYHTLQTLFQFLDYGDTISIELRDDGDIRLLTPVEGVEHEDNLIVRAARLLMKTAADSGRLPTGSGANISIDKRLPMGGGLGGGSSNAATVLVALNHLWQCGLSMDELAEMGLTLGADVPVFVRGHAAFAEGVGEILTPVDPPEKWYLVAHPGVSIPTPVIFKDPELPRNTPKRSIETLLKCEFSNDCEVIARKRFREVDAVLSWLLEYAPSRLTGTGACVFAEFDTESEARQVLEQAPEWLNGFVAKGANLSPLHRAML
Chain of UniProt P28072 (whole entry, looked up): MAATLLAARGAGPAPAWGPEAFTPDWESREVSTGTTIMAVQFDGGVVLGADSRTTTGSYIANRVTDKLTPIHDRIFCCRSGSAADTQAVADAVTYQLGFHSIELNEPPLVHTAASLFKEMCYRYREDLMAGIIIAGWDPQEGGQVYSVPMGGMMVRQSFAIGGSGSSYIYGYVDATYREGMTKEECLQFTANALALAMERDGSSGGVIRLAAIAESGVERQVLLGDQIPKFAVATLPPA

| Structure (SMILES) | target | assay | system | setting | IC50 |
| --- | --- | --- | --- | --- | --- |
| CCC(C)SSc1ncc[nH]1 (stereo not drawn) | genome polyprotein, 2A protease (Enterovirus D68, UniProt A0A097BW19) | enzyme activity, inhibitor, FRET |  | no DTT | 9.3 ± 4.2 µM |
| CN(C)c1ccc(NC(=O)CCCCCNC(=O)CS)cc1 | HDAC8 (Homo sapiens, UniProt Q9BY41) | enzyme activity, inhibitor |  |  | 15.6 µM |
| COC(=O)C1CN1S(=O)(=O)c1ccc(C(F)(F)F)cc1 (stereo not drawn) | P4HB | enzyme activity, inhibitor, absorbance |  | pH 7.6 | 0.54 µM |
| CC(C)C[C@@H]1NC(=O)[C@H](CCCCN)NC(=O)[C@H](CC(C)C)NC(=O)[C@@](C)(NC(=O)[C@H](Cc2ccccc2)NC(=O)[C@H](Cc2ccc(O)cc2)NC(=O)[C@H](C)NC(=O)[C@@H](N)[C@@H](C)O)CCCC=CCCC[C@@](C)(C(=O)NCC(=O)N[C@@H](CCCNC(=N)N)C(=O)N[C@@H](Cc2c[nH]c3ccccc23)C(N)=O)NC1=O | gag-pol integrase | integrase strand transfer, inhibitor |  |  | 6 ± 1 µM |
| Cc1cc(S(=O)(=O)Nc2ncccn2)c(F)cc1N(C)C1CCN([C@H](C)c2ccccc2)CC1 | SCN2A (Homo sapiens, UniProt Q99250) | sodium current, inhibitor, automated patch clamp |  | inactivated state protocol | 14.3 µM |
| CC[C@H](C)[C@H](NC(=O)[C@H](CCCNC(=N)N)NC(=O)[C@H](CO)NC(=O)[C@H](CC(C)C)NC(=O)[C@H](CCCNC(=N)N)NC(=O)[C@H](CCSC)NC(=O)[C@H](C)N)C(=O)N[C@H](C(=O)N[C@@H](CCCNC(=N)N)C(=O)N[C@H](CC(=O)O)C(=O)N[C@@H](Cc1ccccc1)C(=O)N[C@@H](CC(C)C)C(=O)N[C@@H](Cc1ccccc1)C(=O)N[C@@H](CCC(N)=O)C(=O)N[C@@H](CCCNC(=N)N)C(=O)N[C@@H](CCCCN)C(=O)N[C@@H](CCCCN)C(=O)O)[C@@H](C)CC | histidine kinase ComD (Streptococcus pneumoniae serotype 4, UniProt A0A0H2US84) |  | Streptococcus pneumoniae |  | > 1 µM |
| C=CC[C@](C)(NC(=O)[C@H](CC(C)C)NC(=O)[C@H](CCCCN)NC(=O)[C@H](CC(C)C)NC(=O)[C@](C)(CC=C)NC(=O)[C@H](Cc1ccccc1)NC(=O)[C@H](Cc1ccc(O)cc1)NC(=O)[C@H](C)NC(=O)[C@@H](N)[C@@H](C)O)C(=O)NCC(=O)N[C@@H](CCCNC(=N)N)C(=O)N[C@@H](Cc1c[nH]c2ccccc12)C(N)=O | gag-pol integrase | integrase 3'-processing, inhibitor |  |  | > 333 µM |
| C=C(NC(=O)C(=C)NC(=O)c1csc(C2=NC3c4csc(n4)C4NC(=O)c5csc(n5)C(C(C)(O)C(C)O)NC(=O)C5CSC(=N5)C(=CC)NC(=O)C(C(C)O)NC(=O)c5csc(n5)C3(CC2)NC(=O)C(C)NC(=O)C(=C)NC(=O)C(C(C)CC)NC2C=Cc3c(C(C)O)cc(nc3C2O)C(=O)OC4C)n1)C(N)=O (stereo not drawn) | PSMB6 (Homo sapiens, UniProt P28072) | caspase-like activity, inhibitor | purified human 20S proteasome | 37 °C, 15 min preincubation, together with: Ac-Nle-Pro-Nle-Asp-AMC | 1.6 ± 0.3 µM |
| CN(C)C(=O)C1CN1S(=O)(=O)c1ccc(F)cc1F (stereo not drawn) | P4HB | enzyme activity, inhibitor, absorbance |  | pH 7.6 | 5 µM |
| O=C(CCCCCCC(=O)Nc1ccc(N=Nc2ccccc2)cc1)NO | HDAC3 (Homo sapiens, UniProt O15379) | enzyme activity, inhibitor |  | cis isomer, irradiated | 0.335 ± 0.103 µM |
| COc1cc(OC)cc(C(=O)/C=C/c2ccc(N(C)CCO)cc2)c1 | PTGS1 | enzyme activity, inhibitor, ELISA |  |  | 41.3 µM |
| CCCC[C@H](NC(=O)[C@H](Cc1ccccc1)NC(=O)[C@H](Cc1cnc[nH]1)NC(=O)CCNC(=O)[C@@H](NC(=O)[C@H](C)NC(=O)[C@H](Cc1c[nH]c2ccccc12)NC(=O)[C@H](CCC(N)=O)NC(=O)[C@H](N)Cc1ccc(O)cc1)C(C)C)C(N)=O | BRS3 (Homo sapiens, UniProt P32247) | human GRPR activity, cell-based |  |  | 0.00045 ± 4e-05 µM |
| O=C(CCCCCCC(=O)Nc1ccccc1N=Nc1ccccc1)NO | HDAC6 (Homo sapiens, UniProt Q9UBN7) | enzyme activity, inhibitor |  | trans isomer | 0.335 ± 0.105 µM |
| N=C(N)NCCC[C@H](NC(=O)[C@@H]1CCCN1C(=O)[C@H](N)Cc1ccccc1)C(=O)CCl | TMPRSS2 | enzyme activity, inhibitor, fluorescence |  |  | 0.00395 µM |
| CN(CCO)c1ccc(/C=C/C(=O)c2ccco2)cc1 | PTGS1 | enzyme activity, inhibitor, ELISA |  |  | < 25 µM and 20.4 µM |
| Brc1ccc(Oc2ccc(Br)cc2Br)c(Br)c1 | Abcb1a (Mus musculus, UniProt P21447, N83Q/N87Q/N90Q) | ATPase activity, inhibitor | purified recombinant protein | 5 min, pH 7.5, together with: verapamil 100 µM | 22.6 µM |
| N#Cc1nc(N2CCOCC2)nc(N(CCC2CCCCC2)Cc2ccc(F)cc2)n1 | CPL | enzyme activity, inhibitor, Z-L-R-AMC hydrolysis fluorescence |  |  | 66.8 µM |
| OC[C@@H]1[C@@H](O)[C@H](O)[C@@H](O)[C@H]2N[C@@H]12 | GBA1 (Homo sapiens, UniProt P04062, R534H) | enzyme activity, inhibitor |  | 30 min preincubation, pH 5.2, 37 °C, together with: 4-MU-β-Glc | 21 ± 1 µM |
| O=C(O)c1cc(Br)c[nH]1 | 4-diphosphocytidyl-2-C-methyl-D-erythritol kinase (Escherichia coli, UniProt P62615) | enzyme activity, inhibitor |  |  | 113 µM |
| O=C(N[C@@H](CC1CCCCC1)C(=O)N[C@@H](C[C@H]1CCNC1=O)C(=O)C(=O)NC1CC1)OCc1ccccc1 | Genome polyprotein, 3C protease (Human enterovirus D68, UniProt Q68T42) | 3C protease activity, inhibitor, FRET |  |  | 0.021 ± 0.01 µM |

| Structure (SMILES) | target | assay | system | setting | IC50 |
| --- | --- | --- | --- | --- | --- |
| CC(C)[C@@H]1NC(=O)[C@H](CC(=O)O)NC(=O)[C@H](C)NC(=O)[C@H](CCC(=O)O)NC(=O)CNC(=O)[C@H](CCC(=O)O)NC(=O)CNC(=O)[C@@H](N)CSSC[C@@H](C(N)=O)NC1=O | WD repeat-containing protein 5, WBM site (WDR5, Homo sapiens, UniProt P61964) | binding, inhibitor |  |  | > 100 µM |
| COc1ccc(F)cc1S(=O)(=O)Nc1cnc2c(c1)C(=O)NCCO2 | Alkaline phosphatase, placental type (Homo sapiens, UniProt P05187) | enzyme activity, inhibitor, absorbance |  | pH 7.5 | 3.51 µM |
| N=C(N)NCCC[C@H](NC(=O)[C@H](CCCNC(=N)N)NC(=O)[C@H](CCCNC(=N)N)NC(=O)[C@H](CCCNC(=N)N)NC(=O)[C@H](CCCNC(=N)N)NC(=O)[C@H](CCCNC(=N)N)NC(=O)CCCCCNC(=O)[C@H]1O[C@@H](n2cnc3c(N)ncnc32)[C@H](O)[C@@H]1O)C(N)=O | cGMP-dependent protein kinase 1, isoform alpha (PRKG1, Homo sapiens, UniProt Q13976) |  |  |  | 2.57 µM |
| Cc1cccc(C(c2c(C)[nH]c3ccccc23)C(C#N)C#N)c1 (stereo not drawn) | Cocaine esterase (CES2, Homo sapiens, UniProt O00748) | enzyme activity, inhibitor | human liver microsomes | pH 7.4, 37 °C, together with: fluorescein diacetate | 4.12 ± 0.84 µM |
| CC(C)C[C@@H]1NC(=O)[C@H](CCCNC(=N)N)NC(=O)[C@H](C)NC(=O)[C@H](CC(=O)O)NC(=O)[C@H](CCCCN)NC(=O)[C@@H](CO)NC1=O | Disintegrin and metalloproteinase domain-containing protein 8 (Homo sapiens, UniProt P78325) | enzyme activity, inhibitor, fluorescence |  |  | 0.165 µM |
| N#Cc1nc(N2CCOCC2)nc(N(Cc2ccc(F)cc2)CC2CCCCC2)n1 | CPL | enzyme activity, inhibitor, Z-L-R-AMC hydrolysis fluorescence |  |  | 0.026 µM |
| CC(=O)N[C@@H](CCCNC(=N)N)C(=O)N[C@@H](Cc1ccc(O)cc1)C(=O)N[C@@H](CCCNC(=N)NC(=O)NCCCCN)C(=O)N[C@H](CC(C)C)C(=O)N[C@@H](CCCNC(=N)N)C(=O)N[C@@H](Cc1ccc(O)cc1)C(N)=O | NPY4R (Homo sapiens, UniProt P50391) | calcium signal, antagonist |  |  | 6 µM |
| CCCCCCCCCC1N=C(N)N=C(N)N1c1ccc(Cl)cc1 (racemic) | folA (Escherichia coli, UniProt P0ABQ4) | enzyme activity, inhibitor |  |  | 5 µM |
| CC(C)CCN(c1nc(C#N)nc(N2CCOCC2)n1)C(C)c1ccc(F)cc1 (stereo not drawn) | CPL | enzyme activity, inhibitor, Z-L-R-AMC hydrolysis fluorescence |  |  | 0.026 µM |
| CC[C@@H]1C(=O)N(C)c2cnc(Nc3ccc(C(=O)NCCCC[C@H](NC(=O)[C@@H](NC(=O)[C@H](CO)NC(=O)[C@H](Cc4cncn4CCCCCCCCc4ccccc4)NC(=O)[C@H](CC(C)C)NC(=O)[C@@H]4CCCN4C(C)=O)[C@@H](C)OP(=O)(O)O)C(N)=O)cc3OC)nc2N1C1CCCC1 | ALK (Homo sapiens, UniProt Q9UM73, C1156Y) | enzyme activity, inhibitor |  |  | 8.1 µM |
| Nc1nccnc1C(=O)Nc1nc2ccc(OC(F)(F)F)cc2s1 | TMPRSS2 | enzyme activity, inhibitor, fluorescence |  |  | 4.93 µM |
| O=C(O)c1ccccc1Nc1ccc(Oc2ccc(C(F)(F)F)cc2)cc1 | AR | reporter gene, antagonist, MMTV-Luc reporter | MDA-kb2 | 20 h, together with: 8 nM DHT (EC90) | 53 ± 5.1 µM |
| CC[C@H](C)[C@@H]1NC(=O)[C@@H]2CCCN2C(=O)[C@@H]2CCCN2C(=O)[C@H]([C@@H](C)CC)NC(=O)[C@H](CO)NC(=O)[C@H](CCCCN)NC(=O)[C@H]([C@@H](C)O)NC(=O)[C@@H]2CSSC[C@H](NC1=O)C(=O)N[C@@H](Cc1ccccc1)C(=O)N1CCC[C@H]1C(=O)N[C@@H](CC(=O)O)C(=O)NCC(=O)N[C@@H](CCCNC(=N)N)C(=O)N2 | Lymphocyte function-associated antigen 3 (CD58, Homo sapiens, UniProt P19256) |  | human cells |  | > 50 µM |
| C[C@@H]1CCN(c2nc3ccc(Cl)cc3o2)CCN1S(=O)(=O)c1cccc(F)c1 | HCRTR1 (Homo sapiens, UniProt O43613) | calcium signal, antagonist, fluorescence |  |  | 1.98 µM |
| N[C@@H](Cc1c[nH]cn1)C(=O)NCC(=O)N[C@@H](CC(=O)O)C(=O)N[C@@H](Cc1ccccc1)C(=O)O | Integrin alpha-IIb/beta-3, ADP-activated (Homo sapiens, UniProt P05106+P08514) | fibrinogen binding, inhibitor | human platelets |  | > 1000 µM |
| O=C(O)c1ccccc1Nc1ccc(Oc2ccc([N+](=O)[O-])cc2)cc1 | AR | reporter gene, antagonist, MMTV-Luc reporter | MDA-kb2 | 20 h, together with: 0.2 nM DHT (EC50) | 1.9 ± 0.9 µM |
| COc1cc(/N=N/C(C#N)C#N)cc(OC)c1OC | Mycosin-1 (Mycolicibacterium thermoresistibile, UniProt G7CDQ2) | enzyme activity, inhibitor |  |  | 95 µM |
| CCCC[C@@H]1NC(=O)[C@H](Cc2ccccc2)NC(=O)CNC(=O)[C@H](NC(=O)[C@@H](N)Cc2ccc(O)cc2)C(C)(C)SSC(C)(C)[C@H](C(=O)N[C@@H](Cc2c[nH]c3ccccc23)C(=O)NCc2cc(C(F)(F)F)cc(C(F)(F)F)c2)NC(=O)[C@@H]2CCCN2C1=O | OPRD1 (Homo sapiens, UniProt P41143) | ligand displacement, radioligand |  | cell membranes | 1.38 µM |
| CC(=O)N[C@H]1CSC(=O)[C@H](Cc2ccccc2)NC(=O)[C@H](CC(C)C)NC(=O)[C@H](CO)NC(=O)[C@H](CO)NC1=O | Accessory gene regulator protein C (Staphylococcus aureus, UniProt O33590) |  |  |  | 0.000616 µM |

Some of these lines once more:
| Structure (SMILES) | target | assay | system | setting | IC50 |
| --- | --- | --- | --- | --- | --- |
| Cc1cccc(C(c2c(C)[nH]c3ccccc23)C(C#N)C#N)c1 (stereo not drawn) | Cocaine esterase (CES2, Homo sapiens, UniProt O00748) | enzyme activity, inhibitor | human liver microsomes | pH 7.4, 37 °C, together with: fluorescein diacetate | 4.12 ± 0.84 µM |
| O=C(O)c1cc(Br)c[nH]1 | 4-diphosphocytidyl-2-C-methyl-D-erythritol kinase (Escherichia coli, UniProt P62615) | enzyme activity, inhibitor |  |  | 113 µM |
| O=C(N[C@@H](CC1CCCCC1)C(=O)N[C@@H](C[C@H]1CCNC1=O)C(=O)C(=O)NC1CC1)OCc1ccccc1 | Genome polyprotein, 3C protease (Human enterovirus D68, UniProt Q68T42) | 3C protease activity, inhibitor, FRET |  |  | 0.021 ± 0.01 µM |
